Results pooled from the literature.
Numbered parts are unrelated; each lists some results of a single study. Changes are numbered by the printed parent chain.
Sequence of UniProt P28335 (whole entry, looked up): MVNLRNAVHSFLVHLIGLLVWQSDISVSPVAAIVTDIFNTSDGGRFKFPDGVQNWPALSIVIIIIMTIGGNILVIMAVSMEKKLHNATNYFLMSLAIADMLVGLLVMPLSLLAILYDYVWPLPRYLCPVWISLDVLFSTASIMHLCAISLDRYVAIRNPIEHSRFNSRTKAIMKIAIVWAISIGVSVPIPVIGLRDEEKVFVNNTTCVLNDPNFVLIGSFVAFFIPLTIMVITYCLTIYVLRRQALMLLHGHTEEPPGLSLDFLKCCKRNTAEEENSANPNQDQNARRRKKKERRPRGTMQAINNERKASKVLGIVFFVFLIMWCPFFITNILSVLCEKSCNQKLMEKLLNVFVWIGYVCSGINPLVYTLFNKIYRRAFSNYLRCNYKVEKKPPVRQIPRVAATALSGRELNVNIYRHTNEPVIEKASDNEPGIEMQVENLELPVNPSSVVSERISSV

Block 1
Target: vanadate, free oxyanion
Technique: microfluidic competitive inhibition
Matrix: in vitro, cell-free expressed
Concentration: not given
Notes: derived from inhibition constants, unchanged parent 676 nM
Reading: lower = stronger binding
Parent: PafA, mature enzyme, eGFP fusion (Elizabethkingia meningoseptica, UniProt Q9KJX5); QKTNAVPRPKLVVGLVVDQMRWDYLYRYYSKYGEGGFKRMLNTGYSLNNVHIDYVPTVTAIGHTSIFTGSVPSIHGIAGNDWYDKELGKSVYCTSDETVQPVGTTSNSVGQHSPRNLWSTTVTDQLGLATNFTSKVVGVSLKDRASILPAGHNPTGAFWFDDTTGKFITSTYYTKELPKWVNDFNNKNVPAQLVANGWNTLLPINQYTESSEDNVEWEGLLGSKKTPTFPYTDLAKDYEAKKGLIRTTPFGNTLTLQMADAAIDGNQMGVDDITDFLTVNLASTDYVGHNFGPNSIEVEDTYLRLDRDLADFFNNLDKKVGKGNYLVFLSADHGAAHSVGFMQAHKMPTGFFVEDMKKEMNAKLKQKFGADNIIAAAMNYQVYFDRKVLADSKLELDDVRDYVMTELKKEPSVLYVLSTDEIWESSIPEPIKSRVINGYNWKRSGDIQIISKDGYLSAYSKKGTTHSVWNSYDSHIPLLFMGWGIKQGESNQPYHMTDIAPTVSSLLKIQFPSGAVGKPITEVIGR
For `N266G`, “oxyanion analog dissociation constant” read 1.03 µM.
Under “oxyanion analog dissociation constant”, `G88V` is recorded as 708 nM.
For `H112G`, “oxyanion analog dissociation constant” read 2.96 µM.
For `A500V`, “oxyanion analog dissociation constant” read 931 nM.
`L201G`: “oxyanion analog dissociation constant” 526 nM.
For `F167V`, “oxyanion analog dissociation constant” read 917 nM.
`N182G` — result for “oxyanion analog dissociation constant”: 869 nM.
Under “oxyanion analog dissociation constant”, `I204G` is recorded as 617 nM.

Block 2
Target: UDP-N-acetylglucosamine--peptide N-acetylglucosaminyltransferase 110 kDa subunit (OGT, Homo sapiens, UniProt O15294)
Sequence of UniProt O15294 (whole entry, looked up): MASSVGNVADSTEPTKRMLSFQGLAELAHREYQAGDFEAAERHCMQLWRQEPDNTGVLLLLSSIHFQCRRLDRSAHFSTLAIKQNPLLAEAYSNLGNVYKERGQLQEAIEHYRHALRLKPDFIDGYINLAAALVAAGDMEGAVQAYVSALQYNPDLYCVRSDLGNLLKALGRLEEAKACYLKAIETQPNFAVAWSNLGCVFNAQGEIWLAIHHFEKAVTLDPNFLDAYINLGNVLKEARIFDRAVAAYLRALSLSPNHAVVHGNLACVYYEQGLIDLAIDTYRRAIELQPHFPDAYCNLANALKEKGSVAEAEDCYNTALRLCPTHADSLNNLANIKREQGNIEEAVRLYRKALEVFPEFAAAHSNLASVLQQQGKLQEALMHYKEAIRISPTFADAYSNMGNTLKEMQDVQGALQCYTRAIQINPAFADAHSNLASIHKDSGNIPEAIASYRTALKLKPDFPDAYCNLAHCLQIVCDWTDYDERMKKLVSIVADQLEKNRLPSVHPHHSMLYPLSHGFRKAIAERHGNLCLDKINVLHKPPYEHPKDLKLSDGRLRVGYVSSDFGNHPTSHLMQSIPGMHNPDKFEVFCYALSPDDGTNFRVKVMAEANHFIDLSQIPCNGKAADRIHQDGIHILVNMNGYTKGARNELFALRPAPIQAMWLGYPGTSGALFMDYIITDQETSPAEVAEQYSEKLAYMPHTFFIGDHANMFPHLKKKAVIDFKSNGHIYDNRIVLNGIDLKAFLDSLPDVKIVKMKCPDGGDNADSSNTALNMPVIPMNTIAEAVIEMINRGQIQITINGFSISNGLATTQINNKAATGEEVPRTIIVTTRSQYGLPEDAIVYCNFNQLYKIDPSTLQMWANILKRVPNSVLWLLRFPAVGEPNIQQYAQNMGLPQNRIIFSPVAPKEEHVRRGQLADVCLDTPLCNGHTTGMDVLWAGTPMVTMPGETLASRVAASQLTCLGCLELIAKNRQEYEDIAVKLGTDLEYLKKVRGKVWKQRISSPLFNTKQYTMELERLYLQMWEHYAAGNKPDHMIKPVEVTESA
Read-out: binding
Technique: phage display NGS
Molecule type: peptide
Reference: input library
`HLSAMHPELHYHGNH`: “minimum log2 enrichment ratio” 3.
`HPNPPKDHWFRTHH`: “minimum log2 enrichment ratio” 1.31.
`VADRFLPIYQLTTRG`: “minimum log2 enrichment ratio” 2.59.
For `HERHHYVRYQNAGQD`, “minimum log2 enrichment ratio” read 1.29.
Under “minimum log2 enrichment ratio”, `FQPSYQIEYSRVING` is recorded as 3.17.
`HFASPYYTQWHGHWL`: “minimum log2 enrichment ratio” 2.12.
For `QATSPFAPIYQMIRD`, “minimum log2 enrichment ratio” read 2.59.
Under “minimum log2 enrichment ratio”, `RMYHNHVTDRHVTQ` is recorded as 1.59.

Block 3
Target: CCNE2, cyclin fold, Cln2 fusion (human)
Technique: yeast growth competition, sequencing
Matrix: yeast
Notes: strong parent motif
Reference: not given
Reading: higher = stronger binding
Parent: viral docking peptide; KGVKRKLFAEDSS
`KGTKRKLFAEDSS [V3T]`: “normalised enrichment score” 3.31.
Under “normalised enrichment score”, `KGVKRKLFASDSS [E10S]` is recorded as 5.94.
`KGVKRKLRAEDSS [F8R]` — result for “normalised enrichment score”: 0.274.
For `KGGKRKLFAEDSS [V3G]`, “normalised enrichment score” read 1.2.
`KGNKRKLFAEDSS [V3N]`: “normalised enrichment score” 0.532.
Under “normalised enrichment score”, `KSVKRKLFAEDSS [G2S]` is recorded as 6.84.
`KKVKRKLFAEDSS [G2K]` — result for “normalised enrichment score”: 6.27.
`KGVKRKLFAEVSS [D11V]` — result for “normalised enrichment score”: 6.24.

Single results of other studies
The inhibition of NS(=O)(=O)c1cc(NC(=O)C2(c3ccccc3Cl)CC2)ccc1Oc1cccc(Cl)c1 is reported as 19.5% (5-hydroxytryptamine receptor 2C (HTR2C, Homo sapiens, UniProt P28335); ligand displacement; 10 µM).
